# Measurements collected from several papers.
# Numbered parts are unrelated; each lists some results of a single study. Changes are numbered by the printed parent chain.

# Study 1
# Target: Sal-like protein 4, full length isoform B (SALL4, Homo sapiens, UniProt Q9UJQ4-2, residues 1-616)
# Technique: universal PBM
# Molecule type: double-stranded DNA, one strand shown
# Matrix: in vitro
# Concentration: not given
# Setting: 8-mer, flanks averaged, mean of replicates
# Direction: higher = stronger binding
# Construct (chain): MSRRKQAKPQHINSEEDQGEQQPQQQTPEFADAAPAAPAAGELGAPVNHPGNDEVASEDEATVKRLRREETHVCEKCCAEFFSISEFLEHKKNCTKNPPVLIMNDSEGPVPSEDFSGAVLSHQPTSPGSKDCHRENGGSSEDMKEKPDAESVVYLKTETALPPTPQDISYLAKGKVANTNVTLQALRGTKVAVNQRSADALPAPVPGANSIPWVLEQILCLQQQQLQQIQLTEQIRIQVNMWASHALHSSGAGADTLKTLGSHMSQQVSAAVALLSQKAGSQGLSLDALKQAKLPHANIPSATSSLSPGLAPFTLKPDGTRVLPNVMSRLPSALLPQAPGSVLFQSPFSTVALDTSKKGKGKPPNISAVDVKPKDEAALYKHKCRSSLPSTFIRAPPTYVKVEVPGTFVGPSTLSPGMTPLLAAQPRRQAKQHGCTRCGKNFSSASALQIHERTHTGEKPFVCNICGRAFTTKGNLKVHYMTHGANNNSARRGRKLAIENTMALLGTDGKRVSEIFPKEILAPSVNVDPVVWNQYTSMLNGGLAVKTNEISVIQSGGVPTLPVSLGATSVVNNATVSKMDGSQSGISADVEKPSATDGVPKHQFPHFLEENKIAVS
Oligonucleotide,E-score
AGGTTTAA,0.139
AAGCATAG,-0.0481
CATACTCA,0.205
CTACCTGA,-0.00635
GAGGCAAA,0.0247
CAGGAAAA,0.0541
AGTGTGTC,-0.028
AGATAGCG,-0.0806
CCTCGCGC,-0.258
CGCCGTAG,-0.192
ACACACCT,0.104
ATTGCCCG,-0.147
GCTCCTGA,-0.296
GCCCTGAC,-0.256
AATGAAGA,0.158
AGTTATGA,0.415
CATTCAGC,0.018
GTGTAGTA,0.123
AATGAGCC,-0.117

# Study 2
# Target: Histone acetyltransferase KAT6A, winged helix 2, GST fusion (KAT6A, Homo sapiens, UniProt Q92794, residues 85-181)
# Technique: protein binding microarray
# Molecule type: double-stranded DNA, one strand shown
# Matrix: in vitro
# Concentration: not given
# Setting: 8-mer, flanks averaged, mean of 2 arrays, mostly near background
# Baseline: not given
# Direction: higher = stronger binding
# Target sequence (chain): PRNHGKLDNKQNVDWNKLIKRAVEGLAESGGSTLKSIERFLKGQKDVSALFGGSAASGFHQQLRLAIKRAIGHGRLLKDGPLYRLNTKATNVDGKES
Oligonucleotide,E-score
AGTCAGCC,-0.0413
ACTCCCCT,0.0275
ACTTTAGC,-0.0556
AGATGCCT,-0.00217
GACAGGAA,0.0395
AACGGCAC,0.0111
GGATCAGA,-0.0649
CCCACGCG,-0.014
ACCCGTAG,-0.123
CGTTAAAC,-0.198
ATCACGTC,-0.154
CATAAAGA,-5e-06
CTTAAAAA,0.139
GGAAGTCA,-0.093
AATTTAGT,0.0289
ACGCTGGA,0.146
CTTGCTAA,0.143
AGCAACTA,0.214
CGAGGGCC,-0.00427
CTTGACCA,-0.0332
CATAGTTC,-0.00615
GCACGTCA,-0.179
AAGTTCAA,-0.0922
GGTTCAAA,0.017

# Study 3
# Target: CCNB3, cyclin fold, Cln2 fusion (human)
# Technique: yeast growth competition, sequencing
# Matrix: yeast
# Setting: weak parent motif
# Baseline: not given
# Direction: higher = stronger binding
# Starting sequence: CDC25A docking peptide (human); PPHRRRLLFACSP; partner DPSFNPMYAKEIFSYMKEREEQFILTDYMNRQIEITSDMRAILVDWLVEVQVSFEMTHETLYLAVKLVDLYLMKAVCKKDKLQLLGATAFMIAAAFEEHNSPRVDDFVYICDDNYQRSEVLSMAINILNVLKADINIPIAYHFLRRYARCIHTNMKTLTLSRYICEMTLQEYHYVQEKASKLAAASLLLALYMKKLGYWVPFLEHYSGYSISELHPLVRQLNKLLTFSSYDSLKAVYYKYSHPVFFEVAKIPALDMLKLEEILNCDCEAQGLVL
Substitution,normalised enrichment score
R5G,0.338
F9R,0.639
L8P,-0.129
A10R,0.178
R4I,0.777
C11M,-0.288
R6V,0.344
P13I,0.296
C11E,0.135
L7A,0.432
R6A,0.0995
R4T,0.434
A10P,0.118
P1K,0.705
P1G,0.186
P2S,0.0989

# Further values, each from its own experiment
Substance,target,assay,test system,conditions,how to read,quantity,result
"PhoQ, residues 284 288 289 292 302 303 GASLAW","PhoP, residues 12 14 15 18 19 NHTVL (Escherichia coli, UniProt P23836)","Sort-seq, refers to: YFP reporter",E. coli,"PhoQ-PhoP variant library, with: 10 µM Mg2+","baseline: high Mg2+ state, higher = stronger signaling",fold induction,0.722

# Repeated from above (study 2):
Oligonucleotide,E-score
AGATGCCT,-0.00217
AGCAACTA,0.214
GACAGGAA,0.0395
CGTTAAAC,-0.198
CGAGGGCC,-0.00427
CTTGCTAA,0.143
CTTAAAAA,0.139
GCACGTCA,-0.179
